Measured values of several laboratories.
Parts stem from different laboratories: compare values within a part only. Positions count from the first letter of the parent shown.

Set 1
Target: Histone acetyltransferase KAT6A, both winged helices, GST fusion (KAT6A, Homo sapiens, UniProt Q92794, residues 1-181)
Technique: protein binding microarray
Molecule type: double-stranded DNA, one strand shown
Sample: in vitro
Concentration: not given
Notes: 8-mer, flanks averaged, mean of 2 arrays, mostly near background
Relative to: not given
Reading: higher = stronger binding
Target sequence (chain): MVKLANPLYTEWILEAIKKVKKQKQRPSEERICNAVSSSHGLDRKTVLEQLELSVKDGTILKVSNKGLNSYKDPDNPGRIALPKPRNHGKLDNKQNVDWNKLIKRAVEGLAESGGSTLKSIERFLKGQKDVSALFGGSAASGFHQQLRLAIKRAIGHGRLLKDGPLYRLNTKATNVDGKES
Strand | E-score
ACTGGTAC | -0.0593
TAGCCGGA | 0.246
CAGAAACC | -0.0262
GACCGCTA | 0.239
AAGAACGA | -0.0269
CCGTACTC | 0.106
CCAAGTGA | -0.222
ACTCCTGG | -0.139
AAACTAGA | -0.0201
GGATCCTA | 0.0273
GAATTCAA | -0.149
ATGAAGGC | 0.0332
CATTCGTC | -0.0306
CTACTCGC | 0.0588
AATCCATC | -0.252
AGGAGTTA | -0.192
ATTGGAGG | -0.103
CGATGAGC | 0.144
ATCAGGCA | -0.207
GGCAAAGA | 0.0523
AAGCGCGT | 0.304
GAGTTGGA | -0.196
GCGGTGGA | 0.0245
TCGATTAA | 0.00418
TACTACCA | -0.192

Set 2
Target: RNA binding protein fox-1 homolog 2, RRM domain, GST-SBP tag (RBFOX2, Homo sapiens, UniProt O43251-10, residues 100-194)
Technique: RNA Bind-n-Seq
Molecule type: RNA
Sample: in vitro
Concentration: 365 nM
Notes: natural RNA segment, single round, ends assumed
Relative to: no-protein control
Reading: higher = stronger binding
All sequences stand within: GGGAGUUCUACAGUCCGACGAUC … UGGAAUUCUCGGGUGCCAA
Residues (chain): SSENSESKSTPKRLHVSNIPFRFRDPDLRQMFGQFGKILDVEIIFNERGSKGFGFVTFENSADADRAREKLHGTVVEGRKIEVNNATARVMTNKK
Strand | RBNS enrichment (R)
CUUGUUCUCUACUGUUCACCGGGACCUGGCUGGCAAAUGACUUAGCUAUUAGUAUAUUUAAAAACUGUUCAAAAGCAAAAGAGAAGGAACAGGAAUGAAAGGAAACCUUC | 0.59
GCCUUAAGGUUUUCCUAAGGAAUUAACAGGUCUUUUCAUCUUGUAUAGUUUUUACAGUGUGAAUCCAACAUUGGCUCAGUAUGCUAAUGUGACAGUCAACAGUUAUCUAA | 0.31
GUGGAAGAGCCCAGGGGCUGGUCCCAGAACAGGCAGUCUCACAAGCACGCAGCACACUGGAGUGGACGCCUGUGCCCACCCGAGCCUGGAGCAUGGCCAAGAGCCAGCUU | 11.4
CAAGCAUCUUCUUUCCCCCGCAAGUCCAUUUUAUUUCCUUCUUGUGCUGCUCUGGAAGAGAGGCAGUAGCAAAGAGAUGAGCUCCUGGAUGGCAUUUUCCAGGGCAGGAG | 5.52
UGGUCUUGACUAAGCAAUAAGAGCCUCAGAGUUGAUUGAAUUUUAAGGUCCCUUUCUGGCUUCUUGGUUCUCCAUGUGACCAAAGCCCAGUGUGGCUUCAUGGGAGCCCU | 0.256
CACACUGGACAGGUGACUGUAUGGUAGAGACUGUGAUCUGGGAACUUUUUGCUGUACAAAUCUGUUUAAAAAAAAAAAAAAGUAACUCAUUGAAUUAACUUGCAGUGGUG | 0.983
UGAUGUCCAUCUGUCCCUGUGUCUUCUGUCCUCUUUCAGCUAGUUUAGGCUUAUGCCUAGAGUCACCCCAAAGAACUGAGACUGGCUGCAGCAGCCCAGCUGUGUUUCUC | 0.705
AGAAAGAGGGAGUUAGCAUCACCUAAAACCUGCACGUGAACAAGGGUUGACAUGAUACACUAUGGCCUUAGAAAAGGGCCAGGUGAAACCCCAAGCUAAUCACUGCGGUC | 7.95
CAACUCUGUAACAUGGACGCAACCUCAACCCGGCGCAGUUACAACUUCACUGUCAGUGGAAGGGGAGCGAAACCAACUCGAAUCAACUUAUACAUGGAAACAGCAAACAU | 0.313
AAUGCCAGGCCAGUAAAAGUAUAACAGCAAAUAACCAUUGGUUAAUCUGGACUUAUUUUUGGACUUAGUGCAACAGGUUGAGGCUAAAACAAAUCUCAGAACAGUCUGAA | 0.388
CAUGUACAUAUAUAUAUAUAUAAAACAUCAGCCUUGGGUGUGUUUGUAUAUAAACUCCAAAGAGAAACACCCCAAUAGCCUAAGCAAUAAUGCAAAGAUCUUGCCCCUGC | 0.521
UCUGUUUUUGUUAAUAUACCCAAAAUUGUAUAUAUCUUAUAACUGUUUUAGAAAUGGCACAUAGGCUUCUAUUACCUGUUAGGUGGAGAUUUUGUAUGUAAAUGUGUUAG | 0.998

Set 3
Target: Centromere-binding protein 1, full length, His-tagged (CBF1, Saccharomyces cerevisiae, UniProt P17106, residues 1-351)
UniProt P17106, sequence (whole entry, looked up): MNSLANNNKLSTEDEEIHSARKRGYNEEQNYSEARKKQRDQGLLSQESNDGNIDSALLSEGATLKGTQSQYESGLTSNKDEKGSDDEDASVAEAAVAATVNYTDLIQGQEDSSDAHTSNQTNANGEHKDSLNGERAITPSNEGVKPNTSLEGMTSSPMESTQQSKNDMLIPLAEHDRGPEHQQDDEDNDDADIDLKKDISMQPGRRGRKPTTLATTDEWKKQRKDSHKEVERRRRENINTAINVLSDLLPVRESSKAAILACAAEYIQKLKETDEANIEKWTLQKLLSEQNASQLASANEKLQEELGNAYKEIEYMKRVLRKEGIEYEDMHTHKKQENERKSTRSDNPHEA
Technique: competition protein-binding microarray
Molecule type: double-stranded DNA, one strand shown
Sample: in vitro
Concentration: 2 µM
Notes: whole 60-bp probe, lowest competitor level
With: Pho4 competitor, 0.05 µM
Reading: higher = stronger binding
All sequences stand within: … GTCTTGATTCGCTTGACGCTGCTG
Strand | fluorescence intensity
CATTTATATTAAAATAATACCTACTGTTTCATACTT | 89.3 a.u.
TGAGGAGAACGATTGTTCGTGCCAGTGGCAATGGAA | 61.1 a.u.
TTTGTCCTCGCACTCCGCGTGGTGAACTTGTTCTTG | 60.4 a.u.
AAGGACATACACAACCACAGACAAGGTCATATCGCG | 64.2 a.u.
TAGAAACAAAGGCTGCATGTGATAGTACACCCTCCA | 267 a.u.
GCCATCTGTCGGCCACACTTTGAGCAACAACTACAA | 78.8 a.u.
TACAGGTCAATTCAACACGTGGTCGTTCTTCACCAG | 1750 a.u.
CGCTACCAACTGCGCCATGTGCCCTAAAACGCGTAC | 134 a.u.
CTTCTGTAAATTTGTCACCCCACTTGACGCGCCCCG | 92.9 a.u.
AGCCCGGCCGCTCACCACGTGCTCTCTGTTGTTGCT | 1490 a.u.
CATCCTCTTACATCGCACGTGATGGTATACTACTAA | 4440 a.u.
TCCGGGTTATACCATCACGTGATGGTAAATCCAAAT | 13400 a.u.
GAAACCAGATTTTGAGGCGTGCTTTGCAACTGTGAA | 81.8 a.u.
ACATATAGTTTTTTGCACGTGATGGAACTTCTAAGT | 4640 a.u.
AAAAAATAAGCTTTTCTCGTGCCGAGAGTGGTGTAC | 126 a.u.
TGCATCCTCTCCGGCCACGTGGGTAGAGGTTTTACC | 1390 a.u.
TGCTTTTCCATTGGTTACGTGCTAAGTTGTTAGATA | 78.9 a.u.
AAAGCGGTAATTTTTCACGTGAGATCAAATATCTAT | 1800 a.u.
GCCTAAGGGCCTGCCATCGTGCTTTCTCAAACTATT | 63.3 a.u.
TGCGCAACAACTTGTCACGAGACTTTATGTCTAGAA | 1370 a.u.
CCTGCACCGACTCCGTGCGTGCGGAATTGGTAATGC | 64.5 a.u.
AGACGGGGATCATCTTGCATGACAGTGCTAACATTT | 83.5 a.u.
AAATTACTAAGTTGCGTAGTGGGTGACGCCGTATGA | 66.5 a.u.
TGCGCAACAACTTGCCGTGTGGGTGTATGTCTAGAA | 58 a.u.
TTTTGAATTCACCATCACGTTATTACCAGAACAATT | 678 a.u.

Set 4
Target: PABPC1L2, full length, GST fusion (mouse, UniProt A0ABA7IW68)
Technique: RNAcompete
Molecule type: RNA
Sample: in vitro
Concentration: 20 nM
Notes: 7-mer, probes averaged, single round
Relative to: mean of 7-mers
Reading: higher = stronger binding
Target sequence (chain): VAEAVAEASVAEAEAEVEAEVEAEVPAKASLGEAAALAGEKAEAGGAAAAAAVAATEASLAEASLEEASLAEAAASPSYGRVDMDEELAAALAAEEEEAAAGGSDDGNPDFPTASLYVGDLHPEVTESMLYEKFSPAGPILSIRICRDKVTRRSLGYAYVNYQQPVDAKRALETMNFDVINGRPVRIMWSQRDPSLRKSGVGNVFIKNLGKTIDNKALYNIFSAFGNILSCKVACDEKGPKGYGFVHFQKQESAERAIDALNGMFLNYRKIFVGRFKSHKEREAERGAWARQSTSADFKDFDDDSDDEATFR
Strand | 7-mer Z-score
GAAAUUC | 0.273
UAAGAAU | 0.0152
UCGUCGA | -0.465
UAGAGUC | -0.233
GUCAAGU | -0.329
GCAUCCU | -0.271
AUUCCGG | -0.15
GUCCGCG | -0.362
AAUUCUA | -0.13
AUGAAGU | -0.166
UAAAGCA | 0.713
CCGAGAA | 0.207
GCAUAAU | -0.104
AACAGCU | 0.459
UGUACGC | -0.206
CUCUAGG | -0.106
AUGAUAU | -0.106
AAAACCU | 2.31
CACCCUG | -0.345
CUGCACU | -0.177
AGGGACA | 0.428
GCUAACA | -0.119
CACCUUG | -0.193
CUUGUCC | -0.34
ACGUGUA | -0.148

Set 5
Target: CCND3, cyclin fold, Cln2 fusion (human)
Technique: yeast growth competition, sequencing
Sample: yeast
Notes: weak parent motif
Relative to: not given
Reading: higher = stronger binding
Starting sequence: SLBP docking peptide (human); ARYKRKLLINDFG
Substitution | normalised enrichment score
F12L | 0.176
L8C | 0.151
G13L | 0.0432
N10F | 0.136
K6L | 0.238
K4T | 0.0509
L8K | -0.013
L8I | 0.0975
A1G | 0.137
I9Y | 0.174
A1K | 0.121
R2K | 0.21
R2T | 0.232
L8W | 0.148
Y3C | 0.136
G13R | 0.112
R5M | 0.167
D11T | 0.167
L7Y | 0.146
R5N | 0.14
K6R | 0.117

Some of these lines once more (set 3):
Strand | fluorescence intensity
TCCGGGTTATACCATCACGTGATGGTAAATCCAAAT | 13400 a.u.
CATTTATATTAAAATAATACCTACTGTTTCATACTT | 89.3 a.u.
CTTCTGTAAATTTGTCACCCCACTTGACGCGCCCCG | 92.9 a.u.
CATCCTCTTACATCGCACGTGATGGTATACTACTAA | 4440 a.u.
TTTTGAATTCACCATCACGTTATTACCAGAACAATT | 678 a.u.
AGACGGGGATCATCTTGCATGACAGTGCTAACATTT | 83.5 a.u.
AAAAAATAAGCTTTTCTCGTGCCGAGAGTGGTGTAC | 126 a.u.
AAGGACATACACAACCACAGACAAGGTCATATCGCG | 64.2 a.u.
